Assay results from different studies.
Parts stem from different laboratories: compare values within a part only.

Set 1 — technique: RNA Bind-n-Seq; form: RNA; matrix: in vitro; tested at: 1 µM; setting: whole 134-nt RNA, ends assumed; added: 150 mM KCl; baseline: input library; reading: higher = stronger binding; measurement: log2 enrichment
Target: Ras GTPase-activating protein-binding protein 1, C-terminal RGG region (G3BP1, Homo sapiens, UniProt Q13283)
Sequence of UniProt Q13283 (whole entry, looked up): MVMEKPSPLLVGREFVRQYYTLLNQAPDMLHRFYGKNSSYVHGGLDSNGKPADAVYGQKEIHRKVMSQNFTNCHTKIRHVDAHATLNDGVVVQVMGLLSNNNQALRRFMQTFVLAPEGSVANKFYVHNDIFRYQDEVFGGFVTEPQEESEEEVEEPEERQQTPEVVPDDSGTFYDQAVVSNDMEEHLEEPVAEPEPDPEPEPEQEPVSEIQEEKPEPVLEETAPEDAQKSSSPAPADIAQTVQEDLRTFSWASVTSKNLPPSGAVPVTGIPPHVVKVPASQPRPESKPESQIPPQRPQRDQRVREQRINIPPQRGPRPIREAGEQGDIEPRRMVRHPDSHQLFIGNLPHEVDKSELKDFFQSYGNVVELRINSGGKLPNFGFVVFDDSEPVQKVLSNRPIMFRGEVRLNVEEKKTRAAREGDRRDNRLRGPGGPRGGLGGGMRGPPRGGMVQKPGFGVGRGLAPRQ
Sequence = GGGAGUUCUACAGUCCGACGAUCUCAAGUCCUGUGCUACACAUCGUAUGUACCGAAUCGGGGUUUGGUUUGGGUUUGGAAAGUAUUAUGUUACGCCGUUCGGAUCUGCACUUCUGGAAUUCUCGGGUGUCAAGG; result = -0.975
Sequence = GGGAGUUCUACAGUCCGACGAUCUGCAUGUGCACUGAUAGGCCAAGGCCAGCUGAACCAGGCCAUGAAAAUCCUACAAAAAGCUGAAGGUUGGAAGUUUGUUAAACUUAUCUGUGGAAUUCUCGGGUGUCAAGG; result = -2.06
Sequence = GGGAGUUCUACAGUCCGACGAUCCACAGACAACACGCACCCACACAGACACAGAGGGAAGGGGUUGGGAUGGGGACAGGGUGCACAGCAGGGCGGGGUAGCACCCCAGCCCCUUGGAAUUCUCGGGUGUCAAGG; result = -0.601
Sequence = GGGAGUUCUACAGUCCGACGAUCCAAGUCCUGUGCUACACAUCGUAUGUACCGAAUCGGGUGGGUGGGUUUUUUUGGGAAAGUAUUAUGUUACGCCGUUCGGAUCUGCACUUCUGGAAUUCUCGGGUGUCAAGG; result = 0.818

Set 2 — technique: protein-binding microarray; form: double-stranded DNA, one strand shown; matrix: in vitro; tested at: 250 nM; setting: 60-bp whole probe; added: salmon DNA 0.4 mg/ml; baseline: random background probes; reading: higher = stronger binding; measurement: log fluorescence; shared flanks, not repeated: GCCTAGCAC … GTCTTGATTCGCTTGACGCTGCTG
Target: Interferon regulatory factor 5, full length, phosphomimetic (IRF5, Homo sapiens, UniProt Q13568-2, residues 1-514, K96S/S451D/S453D/S456D/S462D)
Sequence = GTCGGTTCCCTTTTCCTGACGTGCTAG; result = 0.778 z-score
Sequence = TTAGATTTCGGGTTCCGATTAGTGCTA; result = 4.59 z-score
Sequence = AGGAAAGTGTTTCTCAACCAGTGCTAG; result = 0.406 z-score
Sequence = GACGGACTCCTTCTCCTGACGTGCTAG; result = -0.434 z-score
Sequence = TTCGATTTCAGTTCCGATTAGTGCTAG; result = 3.55 z-score
Sequence = TTAGATTTCGTGTTTCGATTAGTGCTA; result = 7.44 z-score

Set 3 — technique: aptamer microarray, sandwich; form: DNA with 2'F-ANA; matrix: in vitro; tested at: 200 nM; added: Cy3 exosite-II aptamer, 400 nM; reading: higher = stronger binding; measurement: mean fluorescence intensity
Target: Prothrombin, mature alpha-thrombin (F2, Homo sapiens, UniProt P00734)
Setting: whole 15-mer aptamer, many near background
Sequence = GGTTGGTGTGGTTGG (2'F-ANA at 2 3 5 10 12 15); result = 59.3 a.u.
Sequence = GGTTGGTGTGGTTGG (2'F-ANA at 1 3 7 8 11 13); result = 303 a.u.
Sequence = GGTTGGTGTGGTTGG (2'F-ANA at 3 4 7 9 11 12 15); result = 751 a.u.
Sequence = GGTTGGTGTGGTTGG (2'F-ANA at 2 3 7 12 13 14 15); result = 484 a.u.

Further values, each from its own experiment
Molecule = PhoQ, residues 284 288 289 292 302 303 TYGVAM; target = PhoP, residues 12 14 15 18 19 NQGLL (Escherichia coli, UniProt P23836); test = Sort-seq, item: YFP reporter; system = E. coli; conditions = PhoQ-PhoP variant library, added: 10 µM Mg2+; scale = baseline: high Mg2+ state, higher = stronger signaling; measurement = fold induction; result = 8.11
